Experimental data pooled from the literature.
Lines come from different studies, so protocols differ. Several values in a cell are separate wells, animals, samples, runs or records.
Cell line: RPMI-8226

SMILES = O=C1NC(=NCc2cccs2)S/C1=C\c1ccc2ncccc2c1; test = cytotoxicity, MTS; system = NCI60 panel; conditions = multiple myeloma; measurement = IC50; result = 9 µM
SMILES = C#C[C@@]1(O)[C@@H](CO)O[C@@H](n2ccc3c(N)ncnc32)[C@@H]1O; test = SRB; conditions = NCI-60 screen; measurement = TGI; result = > 100 µM
SMILES = O=C1NC(c2ccccc2)(c2ccccc2)C(=O)N1Cc1cn(-c2cc3ccccc3oc2=O)nn1; test = NCI60 single-dose screen; conditions = 10 µM; measurement = growth percentage; result = 85.8%
SMILES = NNc1nc(-c2ccc(Cl)cc2)c2c(NC(=O)c3ccccc3)nnc-2[nH]1; test = SRB; conditions = 10 µM, NCI60 single-dose screen; how to read = baseline: untreated; measurement = cell growth; result = 96.5%
SMILES = CCCN1CCN(c2ccc3[nH]c(-c4ccc5[nH]c(-c6ccc(C(F)(F)F)cc6)nc5c4)nc3c2)CC1; test = SRB; conditions = 10 µM, 48 h; measurement = growth percent; result = -29.9%
SMILES = C#C[C@@]1(O)[C@@H](CO)O[C@@H](n2cc(Cl)c3c(N)ncnc32)[C@@H]1O; test = SRB; conditions = NCI-60 screen; measurement = TGI; result = 0.521 µM and 0.708 µM
SMILES = O=C(Nc1nnc2n3c(=S)[nH][nH]c3nc(-c3ccc(Cl)cc3)c1-2)c1ccccc1; test = SRB; conditions = 10 µM, NCI60 single-dose screen; how to read = baseline: untreated; measurement = cell growth; result = 92%
SMILES = S=C([S][Au-][P+](CCCCCC[P+]([Au-][S]C(=S)n1cccn1)(c1ccccc1)c1ccccc1)(c1ccccc1)c1ccccc1)n1cccn1; test = cell growth, NCI-60 screen; conditions = leukemia; measurement = log10 TGI; result = -6.28
SMILES = O=C(Nc1nnc2n3c(Cc4ccccc4)n[nH]c3nc(-c3ccc(Cl)cc3)c1-2)c1ccccc1; test = SRB; conditions = 10 µM, NCI60 single-dose screen; how to read = baseline: untreated; measurement = cell growth; result = 93.2%
SMILES = CCOC(=O)/C=C/C(=O)N(CC(C)C)NC(=O)[C@H](Cc1ccccc1)NC(=O)[C@H](CC(C)C)NC(=O)[C@H](CCc1ccccc1)NC(=O)OCc1ccccc1; test = MTS; conditions = 10 µM, 72 h; measurement = viability decrease; result = 25%
SMILES = Cc1cccc(-c2[nH]c(CNc3ccccc3F)nc2-c2ccc3ncnn3c2)n1; test = flow cytometry, item: CD282; conditions = concentration not given; how to read = baseline: comparator compound alone; measurement = surface marker level; result = 157%
SMILES = CCCCN1CCN(c2ccc3[nH]c(-c4ccc5[nH]c(-c6ccc(OCC)cc6)nc5c4)nc3c2)CC1; test = SRB; conditions = 10 µM, 48 h; measurement = growth percent; result = -25.3%
SMILES = Nc1cccc2c1C(=O)N(C1CCC(=O)NC1=O)C2=O (centres unmarked); test = flow cytometry, item: CD33; conditions = concentration not given; how to read = baseline: comparator compound alone; measurement = surface marker level; result = 153%
SMILES = CCCCN1CCN(c2ccc3[nH]c(-c4ccc5[nH]c(-c6ccc(OCC)c(OCC)c6)nc5c4)nc3c2)CC1; test = SRB; conditions = 10 µM, 48 h; measurement = growth percent; result = -25.4%
SMILES = Cc1cc(=O)[nH]c(=O)n1Cc1cn(-c2cc3ccccc3oc2=O)nn1; test = NCI60 single-dose screen; conditions = 10 µM; measurement = growth percentage; result = 99.9%
SMILES = Cc1cc(C)n(-c2nc(-c3ccc(Cl)cc3)c3c(NC(=O)c4ccccc4)nnc-3[nH]2)n1; test = SRB; conditions = 10 µM, NCI60 single-dose screen; how to read = baseline: untreated; measurement = cell growth; result = 95%
SMILES = CCCCN1CCN(c2ccc3nc(-c4ccc5nc(-c6cc(OC)ccc6OC)[nH]c5c4)[nH]c3c2)CC1; test = SRB; conditions = 10 µM, 48 h; measurement = growth percent; result = 54.9%
SMILES = Cn1cncc1C1=CN(c2ncnc3[nH]cnc23)CCS1; conditions = leukemia; measurement = TGI; result = 69.2 µM
SMILES = CC(C)(C)NC(=O)C[C@H](NC(=O)C(=O)c1c[nH]c2ccccc12)C(=O)NCc1cccc(B(O)O)c1; test = cell viability, CellTiter-Glo; conditions = 72 h; measurement = EC10; result = 0.5 µM
SMILES = O=C(Nc1nnc2n3c(nc(-c4ccc(Cl)cc4)c1-2)SCC3=O)c1ccccc1; test = SRB; conditions = 10 µM, NCI60 single-dose screen; how to read = baseline: untreated; measurement = cell growth; result = 93.3%
SMILES = O=c1ccn(Cc2cn(-c3cc4ccccc4oc3=O)nn2)c(=O)[nH]1; test = NCI60 single-dose screen; conditions = 10 µM; measurement = growth percentage; result = 103%
SMILES = CCn1cc(-c2cc(Cn3ccnc3)cc3c2CCN([C@H](c2cc(OC)ccn2)C2CC2)C3=O)c(C(F)(F)F)n1; test = cell growth, inhibitor; conditions = 120 h; measurement = EC50; result = 27.4 µM
SMILES = CCCCN1CCN(c2ccc3[nH]c(-c4ccc5[nH]c(-c6ccc(C(F)(F)F)cc6)nc5c4)nc3c2)CC1; test = SRB; conditions = 10 µM, 48 h; measurement = growth percent; result = -35.3%
SMILES = C#C[C@@]1(O)[C@@H](CO)O[C@@H](n2cc(I)c3c(N)ncnc32)[C@@H]1O; test = SRB; conditions = NCI-60 screen; measurement = TGI; result = 6.65 µM and 4.57 µM
SMILES = CCCN1CCN(c2ccc3[nH]c(-c4ccc5[nH]c(-c6ccc(OCC)c(OCC)c6)nc5c4)nc3c2)CC1; test = SRB; conditions = 10 µM, 48 h; measurement = growth percent; result = -18.9%
SMILES = CCCC(CCC)C(=O)OCc1cn(-c2c3ccccc3nc3ccccc23)nn1; test = NCI60 single-dose screen; conditions = 10 µM; measurement = growth percentage; result = 91.5%

Repeated from above:
SMILES = CCOC(=O)/C=C/C(=O)N(CC(C)C)NC(=O)[C@H](Cc1ccccc1)NC(=O)[C@H](CC(C)C)NC(=O)[C@H](CCc1ccccc1)NC(=O)OCc1ccccc1; test = MTS; conditions = 10 µM, 72 h; measurement = viability decrease; result = 25%
SMILES = Cc1cccc(-c2[nH]c(CNc3ccccc3F)nc2-c2ccc3ncnn3c2)n1; test = flow cytometry, item: CD282; conditions = concentration not given; how to read = baseline: comparator compound alone; measurement = surface marker level; result = 157%
SMILES = CCCCN1CCN(c2ccc3[nH]c(-c4ccc5[nH]c(-c6ccc(OCC)cc6)nc5c4)nc3c2)CC1; test = SRB; conditions = 10 µM, 48 h; measurement = growth percent; result = -25.3%
SMILES = Nc1cccc2c1C(=O)N(C1CCC(=O)NC1=O)C2=O (centres unmarked); test = flow cytometry, item: CD33; conditions = concentration not given; how to read = baseline: comparator compound alone; measurement = surface marker level; result = 153%
